Experimental data from different studies.
A part holds a random share of what one study measured. Positions count from the first letter of the parent shown.

Set 1 — method: RNA Bind-n-Seq; form: RNA; medium: in vitro; concentration: not given; notes: RNA with constant flanks, ends assumed; relative to: input RNA pool; direction: higher = stronger binding
Target: RING finger protein unkempt homolog, zinc fingers 1-6, GST-SBP tag (UNK, Homo sapiens, UniProt Q9C0B0, residues 30-357)
Chain of UniProt Q9C0B0 (30-357, looked up): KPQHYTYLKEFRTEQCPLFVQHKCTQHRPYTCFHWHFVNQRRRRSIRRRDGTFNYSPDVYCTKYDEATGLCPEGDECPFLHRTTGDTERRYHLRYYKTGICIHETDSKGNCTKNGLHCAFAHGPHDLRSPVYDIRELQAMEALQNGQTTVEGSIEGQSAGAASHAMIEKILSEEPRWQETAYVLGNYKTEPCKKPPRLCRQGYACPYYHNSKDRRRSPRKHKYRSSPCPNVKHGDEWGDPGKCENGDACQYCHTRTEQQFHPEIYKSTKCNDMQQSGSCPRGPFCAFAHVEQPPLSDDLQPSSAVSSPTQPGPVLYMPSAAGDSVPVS
Shared flanks, not repeated: GGGAGUUCUACAGUCCGACGAUC … CAACAGAGGAUUGAGCAUCA
Sequence	bound/input enrichment [ratio]
GAAUCAACCAAUGAACAAUUACAGAUACAUUAUAAGGUAUGCUAUGCACGUGUUCUUGAUUACCGAAGAAAAUUCAUUGAAGCUGCACAAAGGUACAAUGAGCUCUCUUACAAGACAAUA	0.186
UUUGUGAAUUUCUCUGAGCAGAAGGAAAAGCUGAUAAAGCGGCAAGAGGAAUUGGACCGAGGCUACAAAUCAAUCAUGGAAUUGAUGAAUGUACUUGAACUUAGAAAAUAUGAAGCUAUU	0.795
GAAGACAAGCCAGUGAACGUUAAUGAAGUACCUGACUAUCAAGAAGACAUUCACACGUACCUCCGGGAAAUGGAGGUUAAAUGUAAACCUAAAGUGGGUUACAUGAAGAGGCAGCCAGAC	0.193
CUAGGGAUUGGGCCAGGACCAGCAGACCUAAUUGACAAAGUCACUGGUCACCUAAAACUUUACCCGGUGGACUUUGAUAUGACAACAACCCCUCCAUCACAAGUGUUUGAAGCCUGUCAG	0.153
GUGGGAGAUUUGGUUCUCAUCAUCCUAGAUGAGCGGCACGACAAUUAUGUAUUGUUUACUGUCCGUCCUACUUUAUAUUUUCUGCACUCAGAGUCUCUUCCUGCCCUGGAUCUCAAACCA	0.305
UAUACUUCAUUGGGACCACGAGUAACUGAUGUAGCCACAUAAGGAGACAUAGGUUAUAAACCCGUUAUCUUUUAAAAGGCUCAGCAACACAACUCUUGAAAUGCUUAUCAGGAUAAUGGU	0.144
UUUAAUGUAUAAAGAUUUUCUAGGAAAUGAUAUUGUGUAUUAAGACAUUCCUUAAUUAAAUCCGGACAAAAUGGCUGCUGUAUAUUUACAAUAUGGAAUUCUGAGUUAAGUACCGCCCUU	0.923
UAUUAUGGAAUACCAAAGUGAAGGGAUUUUGUCAUUCAGCAGACUGUUUCAUAUCCAGAACCGUUCUUCCCUUACCCUUUCAGUCAUAAUUAAAAACCUAAGCUUUCUGGUAAAGUAGGA	0.348

Set 2 — target: CCNB1, cyclin fold, Cln2 fusion (human); method: yeast growth competition, sequencing; medium: yeast; notes: strong parent motif; relative to: not given; direction: higher = stronger binding
Parent: CDC42EP1 docking peptide (human); SLVVGKLSFDSSP
Variant	normalised enrichment score
SLVVGKLSFDSSA [P13A]	1.38
SLVVGKASFDSSP [L7A]	-0.293
SLVVGKLSADSSP [F9A]	-0.552
SLVVGKLAFDSSP [S8A]	1
SLVVAKLSFDSSP [G5A]	1.93
SLVVGKLSFDASP [S11A]	1.52

Set 3 — method: protein binding microarray; form: double-stranded DNA, one strand shown; medium: in vitro; concentration: not given; relative to: not given; direction: higher = stronger binding
Target: Histone acetyltransferase KAT6A, winged helix 1, GST fusion (KAT6A, Homo sapiens, UniProt Q92794, residues 1-85)
Notes: 8-mer, flanks averaged, mean of 2 arrays, mostly near background
Construct (chain): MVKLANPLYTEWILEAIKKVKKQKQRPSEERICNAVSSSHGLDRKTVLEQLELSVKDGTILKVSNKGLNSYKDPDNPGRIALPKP
Sequence	E-score
CCACGTCG	0.0686
CTTGATGC	-0.0947
GCTTTGTA	-0.063
ACATGTTA	-0.114
CGCTAGCA	-0.0132
AAACCTGT	-0.188
CGGCGCTC	0.409
ACGCCCAT	0.0345
AAGACGAT	-0.0739
AAAGAGGC	-0.121
GTCTCAAA	-0.0514
AAGATATT	-0.23
CCGCTGAC	0.289
CGCCTTGC	0.046
ACCAAGGG	-0.168
GTGTTCAA	0.0275
CGCCTTTA	0.0999
CGCCCAAG	0.141
AAGGTCAC	0.0636
AACATATG	-0.0705
AGTGAAAG	-0.0166
AAAAAACT	-0.203
AAGGCAGG	-0.0901
CACGATGA	-0.0714

Set 4 — method: protein-binding microarray; form: double-stranded DNA, one strand shown; medium: in vitro; concentration: 940 nM top; notes: 60-bp whole probe; added: salmon DNA 0.4 mg/ml; relative to: random background probes; direction: higher = stronger binding; shared flanks, not repeated: GCCTAGCAC … GTCTTGATTCGCTTGACGCTGCTG
Target: Interferon regulatory factor 5, full length, phosphomimetic (IRF5, Homo sapiens, UniProt Q13568-2, residues 1-514, S451D/S453D/S456D/S462D)
Sequence	fitted relative affinity [z-score]
TCAGTTTTTGCTTTCCTACTGTGCTAG	1.94
GACGGACTGGGGTATCGGGTCGTGCTA	1.06
GCAGATTGGGTTTCAGGGCTGTGCTAG	0.404
TCATTTTTTTTTCCCTGACTGTGCTAG	1.73
TCATGGATATATATCATACTGTGCTAG	-0.279
ATATATATTATATATTTATGTGTGCTA	0.345
TCCTGCTGTACCCCTAGGGCGTGCTAG	-0.185
TTAGGTCGCGGACTGGGTTAGTGCTAG	-0.397
TTAGGTATCGACTATCGATTAGTGCTA	6.18
GACGATTTCTGGACTGGAGACGTGCTA	0.196
TTAGAACTGCTACTGCTTTAGTGCTAG	-0.294
GACGGTTTCGATCTCGGGACGTGCTAG	11.4
GACGGTATCCATCTCCTGACGTGCTAG	0.501
CTTGCTTGGTGTCTCTGGCCGTGCTAG	-0.378
GACGGACTGCTTTTCTTGACGTGCTAG	0.0858
TTAGGTATCGGGTTTCTGTTAGTGCTA	6.01
GACGGCCTGGGTATCGGGACGTGCTAG	0.513
TTAGTTCTCGGTATCGGTTAGTGCTAG	7.96
TTAGAACTGGTGTATCGATTAGTGCTA	0.854

For quick reference, copied from above (set 3):
Sequence	E-score
CGGCGCTC	0.409
CGCCTTTA	0.0999
AAGGTCAC	0.0636
ACATGTTA	-0.114
AAGACGAT	-0.0739
AAGATATT	-0.23
